{"data": "Measured values pooled from the literature", "target": "Alpha-glucosidase MAL12 (MAL12, Saccharomyces cerevisiae S288c, UniProt P53341)", "note": "Compare with care: the assays were run in different laboratories. Numbers after ± are the reported error.", "sequence of UniProt P53341 (whole entry, looked up)": "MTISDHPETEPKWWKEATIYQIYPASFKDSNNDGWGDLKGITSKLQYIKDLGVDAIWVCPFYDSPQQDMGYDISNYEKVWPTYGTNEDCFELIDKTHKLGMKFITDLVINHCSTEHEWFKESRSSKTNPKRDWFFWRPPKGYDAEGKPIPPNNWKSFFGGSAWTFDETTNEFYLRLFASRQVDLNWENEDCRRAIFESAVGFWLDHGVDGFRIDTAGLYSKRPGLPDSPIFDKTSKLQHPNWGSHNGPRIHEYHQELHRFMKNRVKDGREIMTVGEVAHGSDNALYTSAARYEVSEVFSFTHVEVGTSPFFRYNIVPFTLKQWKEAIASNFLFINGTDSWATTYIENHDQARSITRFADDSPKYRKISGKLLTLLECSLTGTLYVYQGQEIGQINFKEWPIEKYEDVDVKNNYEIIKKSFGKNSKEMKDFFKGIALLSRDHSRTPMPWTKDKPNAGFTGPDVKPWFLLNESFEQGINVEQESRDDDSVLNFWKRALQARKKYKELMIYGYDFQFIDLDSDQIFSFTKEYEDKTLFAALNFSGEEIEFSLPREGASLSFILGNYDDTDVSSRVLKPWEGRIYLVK"}
{"Structure (SMILES)": "CCCCCCSc1nc2ccccc2n1CC(=O)NN1C(=O)CSC1c1cccc(OC)c1 (stereo not shown)", "test": "inhibitor", "IC50 [µM]": "71.64 ± 0.58"}
{"Structure (SMILES)": "O=C1C(=O)N(CCOc2ccc(Br)cc2)c2ccccc21", "test": "enzyme activity, inhibitor", "IC50 [µM]": 30.3}
{"Structure (SMILES)": "CSc1ccc(/C=N/N=C(c2ccc(N(C)C)cc2)c2ccc(N(C)C)cc2)cc1", "test": "enzyme activity, inhibitor", "setting": "pH 6.8, 37 °C, with: p-nitrophenyl alpha-D-glucopyranoside", "IC50 [µM]": "0.45 ± 0.91"}
{"Structure (SMILES)": "O=C1C(=O)N(CCOc2ccc(Cl)cc2)c2ccccc21", "test": "enzyme activity, inhibitor", "IC50 [µM]": 20.3}
{"Structure (SMILES)": "CC1CCC2C(C(=O)O)=COC(OC3OC(CO)C(O)C(O)C3O)C12 (stereo not shown)", "test": "enzyme activity, inhibitor, absorbance", "IC50 [µM]": "> 100"}
{"Structure (SMILES)": "O=Cc1ccc(O)c(O)c1", "test": "enzyme activity, inhibitor", "test system": "Saccharomyces cerevisiae", "IC50 [µM]": "> 100"}
{"Structure (SMILES)": "CN(C)c1ccc(C(=N/N=C/c2ccc([N+](=O)[O-])cc2)c2ccc(N(C)C)cc2)cc1", "test": "enzyme activity, inhibitor", "setting": "pH 6.8, 37 °C, with: p-nitrophenyl alpha-D-glucopyranoside", "IC50 [µM]": "0.28 ± 3.13"}
{"Structure (SMILES)": "COc1cc2c(cc1OC)-c1cc3ccc(OC)c(OC)c3c[n+]1CC2", "test": "enzyme activity, inhibitor", "IC50 [µM]": 640}
{"Structure (SMILES)": "C=C1C(=O)O[C@@H]2[C@H]3C(CO)=CC(=O)C3=C(C)C[C@H](OC(=O)Cc3ccc(O)cc3)[C@@H]12", "test": "enzyme activity, inhibitor, absorbance", "IC50 [µM]": 17.7}
{"Structure (SMILES)": "Cc1ccccc1/C=N/N=C(c1ccc(N(C)C)cc1)c1ccc(N(C)C)cc1", "test": "enzyme activity, inhibitor", "setting": "pH 6.8, 37 °C, with: p-nitrophenyl alpha-D-glucopyranoside", "IC50 [µM]": "0.35 ± 0.91"}
{"Structure (SMILES)": "O=C1O[C@H](c2ccc(O)cc2)Cc2cccc(O)c21", "test": "enzyme activity, inhibitor, absorbance", "IC50 [µM]": 43.8}
{"Structure (SMILES)": "OC[C@H]1O[C@@H](Oc2cc3c(O)cc(O)cc3[o+]c2-c2cc(O)c(O)c(O)c2)[C@H](O)[C@@H](O)[C@@H]1O", "IC50 [µM]": "364 ± 15.2"}
{"Structure (SMILES)": "O=c1ccc2ccc(O[C@@H]3O[C@H](CO)[C@@H](O)[C@H](O)[C@H]3O)cc2o1", "test": "enzyme activity, inhibitor, absorbance", "IC50 [µM]": "> 100"}
{"Structure (SMILES)": "COc1ccc(-c2c(C(F)(F)F)oc3c(Cn4ccnc4)c(O)ccc3c2=O)cc1", "test": "enzyme activity, inhibitor", "setting": "pH 6.8", "IC50 [µM]": "20 ± 2"}
{"Structure (SMILES)": "C=CC1C(OC2OC(COC(CC3C(C(=O)OC)=COC(OC4OC(CO)C(O)C(O)C4O)C3C=C)OC)C(O)C(O)C2O)OC=C(C(=O)OC)C1CC(=O)O (stereo not shown)", "test": "enzyme activity, inhibitor, absorbance", "IC50 [µM]": "> 100"}
{"Structure (SMILES)": "O=C1C(=O)N(CCOc2ccc(F)cc2)c2ccccc21", "test": "enzyme activity, inhibitor", "IC50 [µM]": 150}
